Measured values of several laboratories.
Protocols differ between the studies behind these lines. “And” joins repeats or separate records; there may be more than shown. Numbers after ± are the reported error. Values after ≈ are worked out from the molar mass of the structure shown.

Structure (SMILES)	organism	assay	test system	setting	how to read	endpoint	value
Cc1ccc(N2CC3CC(C2)N3C)cc1C(=O)NC1(c2ccc3c4c(cccc24)C(=O)N3C)CC1	Betacoronavirus 1	viral replication	Huh-7, OC43	100 µM		inhibition	100%
COc1ccc(Nc2ncnc3ccc(-c4ccc(S(=O)(=O)N5CCN(C)CC5)cc4)cc23)cc1Cl	Plasmodium falciparum	parasite growth, SYBR Green fluorescence	W2, drug-resistant			EC50	210 nM
CCOC(=O)C1(Cc2cccc(C(C)C)c2)Oc2cc(F)ccc2N(Cc2cccc(C(C)C)c2)C1=O (centres unmarked)	Arabidopsis thaliana	root length, petri dish germination	Col-0, 1/2 MS medium	200 µg/mL, 7 days, 22 °C, dark		inhibition	52%
O=C(c1cccc(-c2ccc3ncnc(Nc4ccc(OCc5cccc(F)c5)c(Cl)c4)c3c2)c1)N1CCCCC1	Plasmodium falciparum	parasite growth, SYBR Green fluorescence	W2, drug-resistant			EC50	840 nM
CCC1(CC)CC(=O)N(C2CCOc3ccc(C(=O)NC4CC(C)(C)Oc5ccccc54)cc32)C(=N)N1 (centres unmarked)	Plasmodium falciparum	parasite growth	CAM3 REV			EC50	0.5 ± 0.1 nM
CS(=O)(=O)c1ccc(-c2ccc3ncnc(Nc4ccc(OCc5cccc(F)c5)c(Cl)c4)c3c2)cc1	Plasmodium falciparum	parasite growth, SYBR Green fluorescence	C235 (TM91C235), drug-resistant			EC50	200 nM
CC(=O)c1c(O)c(C)c(O)c2c1OC1=CC(=O)C(=C(C)NCCCCOC3OC4OC5(C)CCC6C(C)CCC(C3C)C46OO5)C(=O)C12C (mixture of isomers)	Plasmodium berghei		ANKA GFP, NMRI mouse	oral, 4 x 30 mg/kg		mean survival time	17 days
CCCCCCCCCC(=O)NCCCC[C@H](NC(=O)CCCCCCCCC)C(=O)N[C@@H](CCCCNC(=O)CCCCCCCCC)C(=O)NCC(=O)NCC(=O)NCC(=O)N[C@@H](CS)C(=O)N[C@@H](CCCNC(=N)N)C(=O)N[C@@H](CCCCN)C(=O)N1CCC[C@H]1C(=O)N[C@@H](CS)C(=O)N[C@@H](CCCNC(=N)N)C(=O)N[C@@H](CCCCN)C(=O)N1CCC[C@H]1C(N)=O	Candida albicans	broth microdilution	SP 3931, RPMI-1640	48 h, 30 °C		MIC	64 µM (≈ 120 µg/mL)
Fc1cccc(COc2ccc(Nc3ncnc4ccc(-c5cccc(N6CCCCC6)c5)cc34)cc2Cl)c1	Plasmodium falciparum	parasite growth, SYBR Green fluorescence	W2, drug-resistant			EC50	1800 nM
CCOC(=O)C1(Cc2ccc(C(F)(F)F)cc2)Oc2cc(F)ccc2N(Cc2ccc(C(F)(F)F)cc2)C1=O (centres unmarked)	Arabidopsis thaliana	root length, petri dish germination	Col-0, 1/2 MS medium	200 µg/mL, 7 days, 22 °C, dark		inhibition	54.5%
COc1ccc(Cn2c3cc(=O)n(Cc4cccc(Cl)n4)c(C)c3c(=O)n2-c2ccccn2)cc1	human respiratory syncytial virus		recombinant reporter virus	concentration not given, scale 0 to 100, with: adenosine 33.3 µM		normalized viral replication	0
CCOC(=O)C1(Cc2cc(F)cc(F)c2)Oc2cc(F)ccc2N(Cc2cc(F)cc(F)c2)C1=O (centres unmarked)	Arabidopsis thaliana	stem length, petri dish germination	Col-0, 1/2 MS medium	50 µg/mL, 7 days, 22 °C, dark		inhibition	27.3%
CN(CCO)CCO.O=C(O)C(Cl)Cl	Xanthium sibiricum			15 mg/mL, 21 days, pre-emergence, greenhouse		herbicidal inhibition	0%
CCOC(=O)C1(Cc2ccc(C)cc2)Oc2cc(F)ccc2N(Cc2ccc(C)cc2)C1=O (centres unmarked)	Arabidopsis thaliana	root length, petri dish germination	Col-0, 1/2 MS medium	50 µg/mL, 7 days, 22 °C, dark		inhibition	34.1%
COc1ccc(Nc2ncnc3ccc(-c4ccc(S(=O)(=O)N5CCOCC5)cc4)cc23)cc1Cl	Plasmodium falciparum	parasite growth, SYBR Green	D6	blood stage		EC50	810 nM
CC(C)[C@H]1NC(=O)[C@H](Cc2ccccc2)NC(=O)[C@@H](C(C)C)NC(=O)[C@@H](C)NC(=O)[C@H](CO)NC(=O)[C@@H](Cc2c(-c3ccc(C4CCCCC4)cc3)[nH]c3ccccc23)NC(=O)[C@@H](CO)NC1=O	Candida albicans	broth dilution				MIC90	> 50 µM
Cc1cc(C(=O)Nc2nc3cccc(C)c3n2[C@H]2CCCCN(C(=O)/C=C/CN(C)C)C2)ccn1	Trypanosoma brucei brucei		2T1 wild type	50 x EC50		survival	-0.047% and -0.095% and -0.109% and -0.059%
[2H]C([2H])(c1cc(F)c(F)cc1F)n1c(=O)n(Cc2ncn(C)n2)c(=O)[nH]/c1=N\c1cc2cn(C)nc2cc1Cl	transmissible gastroenteritis virus	viral replication, qRT-PCR	ST	48 h		IC50	47700 nM
CN(C)c1nc(NCc2ccc3ccccc3c2)c(/N=N/c2ccc(Cl)cc2)c(N(C)C)n1	Plutella xylostella	leaf dipping		200 mg/L, 96 h		mortality	83.3 ± 5.8%

Structure (SMILES)	organism	assay	test system	setting	how to read	endpoint	value
CCCCCCCC(=O)NCCCC[C@H](NC(=O)CCCCCCC)C(=O)N[C@@H](CCCCNC(=O)CCCCCCC)C(=O)NCC(=O)NCC(=O)NCC(=O)N[C@@H](CS)C(=O)N[C@@H](CCCNC(=N)N)C(=O)N[C@@H](CCCCN)C(=O)N1CCC[C@H]1C(=O)N[C@@H](CS)C(=O)N[C@@H](CCCNC(=N)N)C(=O)N[C@@H](CCCCN)C(=O)N1CCC[C@H]1C(=O)N[C@@H](CS)C(=O)N[C@@H](CCCNC(=N)N)C(=O)N[C@@H](CCCCN)C(=O)N1CCC[C@H]1C(N)=O	Candida albicans	broth microdilution	SP 3876, RPMI-1640	48 h, 30 °C		MIC	16 µM (≈ 36.4 µg/mL)
CC(=O)c1c(O)c(C)c(O)c2c1OC1=CC(=O)C(=C(C)NCCCC(=O)OC3OC4OC5(C)CCC6C(C)CCC(C3C)C46OO5)C(=O)C12C (centres unmarked)	Plasmodium berghei		ANKA GFP, mouse NMRI	intraperitoneal, 4 × 50 mg/kg		mean survival time	> 30 days
FC(F)(F)c1cccc(CNc2nc(NC3CCN(Cc4ccccc4)CC3)c3nc[nH]c3n2)c1	Cryptococcus neoformans	mRNA level, RNA-seq, item: CNAG_02375		48 µg/mL, 3 h	relative to: untreated	fold change	1.4
CCCCCC[C@H]1C(=O)O[C@H](C)[C@H](NC(=O)c2cccc(NC=O)c2O)C(=O)O[C@@H](C)[C@@H]1OC(=O)CC(C)C	Bovine alphaherpesvirus 1	viral replication	Vero C1008	24 h		IC50	14 nM
O=S(=O)(c1ccc(-c2ccc3ncnc(Nc4ccc(OCc5cccc(F)c5)c(Cl)c4)c3c2)cc1)N1CCNCC1	Plasmodium falciparum	parasite growth, SYBR Green fluorescence	W2, drug-resistant			EC50	200 nM
C[C@H](NC(=O)[C@@H](O)c1cc(F)cc(F)c1)C(=O)N[C@@H]1C(=O)N(C)c2ccccc2-c2ccccc21	dengue virus 2	viral infection, luciferase reporter virus		0.1 nM, 48 h		inhibition	6.6%
CCOC(=O)C1(CC)Oc2cc(F)ccc2N(CC)C1=O (centres unmarked)	Arabidopsis thaliana	root length, petri dish germination	Col-0, 1/2 MS medium	200 µg/mL, 7 days, 22 °C, dark		inhibition	100%
OB(O)c1ccc(C(F)(F)F)s1	Staphylococcus aureus	crystal violet	USA300 wild type	10 µM	relative to: wild type untreated	biofilm formation	39.4% and 34% and 35%
CC[C@H](C)CCCCC(=O)N[C@@H](CCN)C(=O)N[C@H](C(=O)N[C@@H](CCN)C(=O)N[C@H]1CCNC(=O)[C@H]([C@@H](C)O)NC(=O)[C@H](CCN)NC(=O)[C@H](CCN)NC(=O)[C@H](CC(C)C)NC(=O)[C@@H](CC(C)C)NC(=O)[C@H](CCN)NC1=O)[C@@H](C)O	Escherichia coli	daily serial passaging	ATCC 8739	highest sub-MIC, 35 days	relative to: initial MIC	MIC fold change	1.95
CCCN1C(=O)C(CCC)(C(=O)OCC)Oc2cc(F)ccc21 (centres unmarked)	Arabidopsis thaliana	root length, petri dish germination	Col-0, 1/2 MS medium	50 µg/mL, 7 days, 22 °C, dark		inhibition	58.5%
O=[N+]([O-])c1ccc(C2=[N+]([O-])c3ccccc3N3CCCN=C23)cc1	Fusobacterium nucleatum					MIC90	≤ 0.06 µg/mL
CCOC(=O)C1(Cc2cc(OC)cc(OC)c2)Oc2cc(F)ccc2N(Cc2cc(OC)cc(OC)c2)C1=O (centres unmarked)	Arabidopsis thaliana	root length, petri dish germination	Col-0, 1/2 MS medium	200 µg/mL, 7 days, 22 °C, dark		inhibition	55.3%
[O-][N+]1=C(c2ccc(Cl)cc2)C2=NCCCN2c2ccccc21	Fusobacterium nucleatum	microbial growth				MIC50	0.25 µg/mL (≈ 0.802 µM)
CC[C@H](C)[C@H](NC(=O)[C@@H]1CCCN1C(=O)CNC(=O)[C@H](CC(N)=O)NC(=O)CNC(=O)[C@H](CC(=O)O)NC(=O)[C@@H]1CCC(=O)O[C@H](C)[C@H](NC(=O)[C@@H](NC(=O)[C@H](Cc2ccccc2)NC(=O)[C@@H](NC(=O)[C@H](CCCCN)NC(=O)CNC(=O)[C@H](CC(=O)O)NC(=O)CNC(=O)[C@@H](NC(=O)CNC(=O)[C@H](CC(=O)O)NC(=O)[C@@H]2CCC(=O)O[C@H](C)[C@H](NC(=O)[C@@H](NC(=O)[C@H](CC(C)C)NC(=O)[C@H](CCCCN)NC(=O)[C@H](Cc3ccccc3)NC(=O)[C@H](CC(=O)O)NC(=O)CNC(=O)[C@H](CCCCN)NC(=O)[C@H](CC(C)C)NC(=O)[C@H](CO)NC(=O)CN)C(C)C)C(=O)N[C@@H](CCSC)C(=O)N[C@@H](CCCCN)C(=O)N[C@@H](C(C)C)C(=O)N3CCC[C@H]3C(=O)N2)C(C)C)C(C)C)[C@@H](C)O)C(=O)N[C@@H](C)C(=O)N[C@@H](CC(C)C)C(=O)NCC(=O)N1)C(=O)N[C@@H](Cc1ccc(O)cc1)C(=O)N[C@@H]1C(=O)N[C@@H]2C(=O)N[C@@H](CCC(N)=O)C(=O)N[C@@H](C)C(=O)N[C@@H](C(C)C)C(=O)NCC(=O)N[C@@H](CCC(=O)O[C@@H]2C)C(=O)N[C@H](C(=O)NCC(=O)NCC(=O)N[C@@H](CC(=O)O)C(=O)N[C@@H](CC(C)C)C(=O)N2CCC[C@H]2C(=O)N2CCC[C@H]2C(=O)N[C@@H](CC(C)C)C(=O)N[C@@H](Cc2ccccc2)C(=O)O)CCC(=O)O[C@@H]1C	herpes simplex virus	viral replication				IC50	> 100000 nM
CCOC(=O)C1(Cc2ccc(C#N)cc2F)Oc2cc(F)ccc2N(Cc2ccc(C#N)cc2F)C1=O (centres unmarked)	Arabidopsis thaliana	stem length, petri dish germination	Col-0, 1/2 MS medium	50 µg/mL, 7 days, 22 °C, dark		inhibition	19.1%
O=C(c1ccc(-c2ccc3ncnc(Nc4ccc(OCc5cccc(F)c5)c(Cl)c4)c3c2)cc1)N1CCOCC1	Plasmodium falciparum	parasite growth, SYBR Green fluorescence	W2, drug-resistant			EC50	860 nM
CN(C(=O)c1ccn2ncc(-c3ccc(C(N)=O)cc3)c2c1)c1ccc(C#N)cn1	Cryptosporidium parvum		UGA1 Nluc, IFN-gamma knockout C57BL/6 mice, faeces	oral, 10 mg/kg daily, 120 h post infection, treatment days 11-17	higher means more parasites	faecal Nluc luminescence	3990 a.u. and 6640 a.u. and 1030 a.u. and 1650 a.u. and 2570 a.u.
C[N+]1=C2C(c3ccccc3)=[N+]([O-])c3ccccc3N2CCC1	Fusobacterium nucleatum	microbial growth				MIC50	4 µg/mL
O=S(=O)(c1ccc(-c2ccc3ncnc(Nc4ccc(OCc5ccc(C(F)(F)F)c(F)c5)c(Cl)c4)c3c2)cc1)N1CCOCC1	Plasmodium falciparum	parasite growth, SYBR Green	D6	blood stage		EC50	570 nM
